Measurements from different studies.
Protocols differ between the studies behind these lines. Values joined by “and” are separate records of one study, mostly repeats; a detail may differ. Numbers after ± are the reported error.

SMILES | cell line | assay | setting | scale | quantity | result
CC(C)(c1ccc(O)cc1)c1ccc(O)cc1 | HepG2 spheroids | Hoechst flow cytometry | 0.01 µM, 96 h | – | G1 phase cells | 81.7 ± 3.56%
COc1ccc(-n2nc(C(C)=O)s/c2=N\N=C(/C)c2ccc(NC(=O)c3ccc(Cl)cc3)cc2)cc1 | MCF7 | – | 10 µM | – | viability | 3.49%
O=C(/C=C/C=C/C=C/C1CCCCC1)NC1=C[C@@](O)(/C=C/C=C/C=C/C(=O)NC2=C(O)CCC2=O)[C@@H]2O[C@@H]2C1=O | melho | cell growth, inhibitor, CellTiter-Glo luminescence | 78 h | reference: day 0 cell count | GI50 | 6490 nM
Cn1cc(Nc2nccc(-c3ccc4c(c3)CN(C3COC3)CC[C@H]4NC(=O)c3cn(C(C)(C)C)nn3)n2)cn1 | mouse splenic B cells | item: RhoGDI signalling | 30 mg/kg, IgD-activated in vivo | reference: vehicle, direction not given | pathway activation z-score | -2.36
Cc1c(C)c2c(c(C)c1O)CCC(C)(COc1ccc(CC3SC(=O)NC3=O)cc1)O2 (centres unmarked) | iPSC-derived hepatocytes B3 | cell viability | 72 h, differentiation day 23 | – | IC50 | 52000 nM
CCn1cc(-c2cc(Cn3ccnc3)cc3c2CCN([C@H](c2cc(OC)ccn2)C2CC2)C3=O)c(C(F)(F)F)n1 | NCI-H661 | cell growth, inhibitor | 120 h | – | EC50 | > 30000 nM
c1ccc2[nH]ccc2c1 | HCT-8 | RNA-seq, item: SLC6A9 | concentration not given | – | mRNA level, LS mean | 43.5 counts per million
CC(=O)c1ccc(-c2cccc(NC(=O)CCc3cccc4c3B(O)OC4)c2)cc1 | HCT-116 CPSF3 mutant clones | – | – | reference: parental HCT-116 | resistance | ≥ 32 fold
Cc1sc2c(c1C)C(c1ccc(Cl)cc1)=N[C@@H](CC(=O)NCCCCCCCCNC(=O)COc1cccc3c1C(=O)N(C1CCC(=O)NC1=O)C3=O)c1nnc(C)n1-2 (some centres unmarked) | RAW264.7 | macrophage polarization, flow cytometry | 0.25 µg/mL, 24 h, together with: IL-4 20 ng/mL pretreatment | – | CD86+ cells | 1.23% and 1.42% and 1.5%
COc1cnc2cccc(N3CCc4c(cc(Cn5ccnc5C)cc4-c4cn(C)nc4C(F)(F)F)C3=O)c2c1 | Toledo | cell growth | 120 h | – | EC50 | 23.4 nM
COCCOCCOCCOc1ccc(C#Cc2cc(CN3CCN(Cc4cc(C#Cc5ccc(OCCOCCOCCOC)cc5)cc(C(=O)O)n4)CCN(Cc4cc(SC[C@H](N)C(=O)NC[C@H]5CC[C@H](C(=O)N[C@@H](Cc6ccc7ccccc7c6)C(=O)NCCCC[C@H](NC(=O)N[C@@H](CCC(=O)O)C(=O)O)C(=O)O)CC5)cc(C(=O)O)n4)CC3)nc(C(=O)O)c2)cc1 [yttrium-86 labelled] | PC-3 flu (PSMA-negative) | – | concentration not given | – | cell-bound radioactivity | 8.33 ± 0.27%
Cc1c(-c2c(-c3ccc(F)o3)sc3ncnc(O[C@H](Cc4ccccc4OCc4ccnn4CC(F)(F)F)C(=O)O)c23)ccc(OCCN2CCN(C)CC2)c1Cl | HD-MB03 | – | concentration not given, together with: ribociclib NG | reference: ribociclib over DMSO | fold change in IC50 | 2.06
C=CCn1c(=O)c2cnc(Nc3ccc(N4CCN(C)CC4)cc3)nc2n1-c1ccc2c(n1)[C@@](O)(CC)CC2 | NCI-H1048 | flow cytometry | concentration not given | – | G1 phase cells | 11.5%
CC/C(=N\NC(=O)NCc1cccc(O)c1)c1ccc(O)c(C)c1O | SK-OV-3 | Western blot, item: LATS | 20 µM, 1 h, 3D gellan gum culture, unit not given | reference: β-actin | protein level | 0.51 ± 0.34
CC(=O)O[C@H]1C(=O)[C@@]2(C)[C@H]([C@H](OC(=O)c3ccccc3)[C@]3(O)C[C@H](OC(=O)[C@H](O)[C@@H](NC(=O)c4ccccc4)c4ccccc4)C(C)=C1C3(C)C)[C@]1(OC(C)=O)CO[C@@H]1C[C@@H]2O | KB-C2 (P-gp overexpressing) | cell growth | – | reference: IC50 in KB-C2 over KB-3-1 | fold resistance | 506
CCN(c1nc(N)c(C(=O)NC(=N)N)nc1Cl)C(C)C | HMC3 | endocytosis, flow cytometry | 30 µM, 2 h pretreatment then 3 h, together with: FITC-Aβ 25 µM | – | reduction of Aβ-positive cells | 14.4%
CNNCc1ccc(C(=O)NC(C)C)cc1 | primary rat hippocampal/cortical neuron-glia cultures | – | 1 µM, together with: 1 µM α-synuclein oligomers | – | reversal of trafficking deficit | -15.4%
CSc1cc(Oc2ccnc3[nH]c(=O)cnc23)ccc1NC(=O)Nc1cc(C(C)(C)C)nn1-c1ccccc1 | patient-derived cell lines, mean of three | RPPA | 1 µM, 4 h | reference: DMSO | phospho-Src family Tyr416/total ratio | 0.24
O=C(C[C@@H](C(F)F)n1ccc(F)n1)N1CCC(O)(Cn2cnc3c(cnn3-c3ccc(F)cc3)c2=O)CC1 | CHP-212 resistant | PI flow cytometry | 0.1 µM, 24 h | – | G1 phase cells | 72.7%

SMILES | cell line | assay | setting | scale | quantity | result
CC(=O)c1c(C)c2cnc(Nc3ccc(N4CCNCC4)cn3)nc2n(C2CCCC2)c1=O | HD-MB03 | cell growth | 168 h, single agent | – | IC50 | 1970 nM
Cn1c(Nc2nc3ccc(C(F)(F)F)cc3s2)nc2cc(C(=O)NCCOCCO)ccc21 | SH-SY5Y | RNA-seq, item: FAM30A mRNA | 5 µM, 5 h | reference: untreated cells | fold change | 2.7
COc1cc(/C=C/C(=O)N2CCC=CC2=O)cc(OC)c1OC | MDA-MB-468 | qRT-PCR, item: CDKN2A | 30 µM, 6 h | reference: time zero | mRNA level | 129 ± 95.3%
Cc1cccc(-c2[nH]c(CNc3ccccc3F)nc2-c2ccc3ncnn3c2)n1 | MM1.S | XTT | 2.5 µM | reference: untreated | viability | 14%
C[C@H](Nc1ccc2c(c1)OCCn1cc(N3C(=O)OC[C@H]3C(F)F)nc1-2)C(N)=O | NCI-H1048 | growth rate inhibition, CellTiter-Glo | 120 h | – | IC50 | 2.4 nM
Cn1cc(-c2ccc(-c3cncc(Cl)c3N3CCC4(CCNC4=O)CC3)cc2)cn1 | COLO 205 | gene expression, microarray, item: AK4 mRNA | concentration not given, 6 h | reference: untreated cells | log2 fold change | 2.25
C=CC(=O)N1[C@@H](c2ccc3c(c2)OCO3)c2[nH]c3ccccc3c2C[C@H]1C(=O)NC | rat DRG neurons | – | 0.3704 µM, 48 h, together with: vincristine 40 nM | – | mean neuron degeneration | 77.9%
CC/C(=N\NC(=O)C(C)Nc1ccccc1)c1ccc(O)c(C)c1O (centres unmarked) | SK-OV-3 | Western blot, item: YAP | 10 µM, 6 h, 2D culture, unit not given | reference: β-actin | protein level | 1.7 ± 0.41
Cc1cc(Nc2ncc(Cl)c(Nc3ccccc3S(=O)(=O)C(C)C)n2)c(OC(C)C)cc1C1CCNCC1 | CLB-GE | phosphoproteomics LC-MS/MS, item: BAI2 phosphorylation | 200 nM, 60 min | reference: untreated | log2 fold change | -1.68
COc1cc(C(=O)O)ccc1NC(=O)[C@@H]1N[C@@H](CC(C)(C)C)[C@](C#N)(c2ccc(Cl)cc2F)[C@H]1c1cccc(Cl)c1F | HD-MB03 | cell growth | 168 h, single agent | – | IC50 | 49.9 nM
CSCC[C@H](NC(=O)[C@H](Cc1ccc(OS(=O)(=O)O)cc1)NC(=O)[C@@H](N)CC(=O)O)C(=O)NCC(=O)N[C@@H](Cc1c[nH]c2ccccc12)C(=O)N[C@@H](CCSC)C(=O)N[C@@H](CC(=O)O)C(=O)N[C@@H](Cc1ccccc1)C(N)=O | HEK293T control virus | agonist, GloSensor cAMP | 0.00512 nM, no receptor expressed | higher = more cAMP | cAMP accumulation | 0.173 a.u.
Cc1cc(NS(=O)(=O)c2ccc(NC(=O)/C(C#N)=C/c3ccc(N4CCCCC4)cc3)cc2)no1 | HCT-116 | wound healing | IC50, 4-24 h | reference: untreated | cell migration | decreased
Cc1noc2c1-c1ccccc1C(c1ccc(Cl)cc1)=N[C@H]2CC(N)=O | HD-MB03 | cell growth | 168 h, single agent | – | IC50 | 1050 nM
Cc1ccc(-c2cc3ccccc3c(N)n2)cc1 | SEM | annexin V-FITC/PI flow cytometry, item: annexin V+ PI- | 2.5 µM, 72 h | – | early apoptotic cells | 5.4%
CC1(C)OCCn2c1nc1c(N3CCOCC3)nc(-c3cnc(N)nc3)nc12 | HD-MB03 | – | together with: ribociclib 5 µM | reference: ribociclib over DMSO | fold change in IC50 | 2.46
CCc1oc2ccccc2c1C(=O)c1cc(Br)c(O)c(Br)c1 | primary rat hippocampal/cortical neuron-glia cultures | – | 1 µM, together with: 1 µM α-synuclein oligomers | – | reversal of trafficking deficit | 24.4%
CCCCc1nc(Cl)c(CO)n1Cc1ccc(-c2ccccc2-c2nn[nH]n2)cc1 | human PBMC | RNA-seq, item: STAB1 mRNA | 10 µg/mL, 24 h | reference: untreated control | log2 fold change | -1.54
CNC[C@H](O)c1cccc(O)c1 | COS-7, untransfected | – | 500 µM, relative to vehicle, unit not given | reference: 3 µM ionomycin response | Ca2+ mobilisation | 2.06 ± 0.54
NC(=O)c1cccc2c1O/C(=C\c1ccc(C(=O)N3CCN(c4nc5ccccc5[nH]4)CC3)s1)C2=O | SUM149 | cellular PARylation, inhibitor, Western blot | together with: H2O2 | – | PARylation | inhibited

Excerpt of the above:
SMILES | cell line | assay | setting | scale | quantity | result
Cc1c(C)c2c(c(C)c1O)CCC(C)(COc1ccc(CC3SC(=O)NC3=O)cc1)O2 (centres unmarked) | iPSC-derived hepatocytes B3 | cell viability | 72 h, differentiation day 23 | – | IC50 | 52000 nM
CCn1cc(-c2cc(Cn3ccnc3)cc3c2CCN([C@H](c2cc(OC)ccn2)C2CC2)C3=O)c(C(F)(F)F)n1 | NCI-H661 | cell growth, inhibitor | 120 h | – | EC50 | > 30000 nM
c1ccc2[nH]ccc2c1 | HCT-8 | RNA-seq, item: SLC6A9 | concentration not given | – | mRNA level, LS mean | 43.5 counts per million
CC(=O)c1ccc(-c2cccc(NC(=O)CCc3cccc4c3B(O)OC4)c2)cc1 | HCT-116 CPSF3 mutant clones | – | – | reference: parental HCT-116 | resistance | ≥ 32 fold
Cc1sc2c(c1C)C(c1ccc(Cl)cc1)=N[C@@H](CC(=O)NCCCCCCCCNC(=O)COc1cccc3c1C(=O)N(C1CCC(=O)NC1=O)C3=O)c1nnc(C)n1-2 (some centres unmarked) | RAW264.7 | macrophage polarization, flow cytometry | 0.25 µg/mL, 24 h, together with: IL-4 20 ng/mL pretreatment | – | CD86+ cells | 1.23% and 1.42% and 1.5%
